Measurements collected from several papers.
± gives the spread as reported.

| SMILES | cell line | assay | setting | how to read | quantity | result |
| --- | --- | --- | --- | --- | --- | --- |
| CN1CCCNC(=O)c2cccc(c2)C(=O)NCCCN(C)CCCNc2cccc3c2C(=O)c2cccc(c2C3=O)NCCC1 | SAS | RNA-Seq, measured: VPS39 mRNA | 1 µM, 6 h | relative to: untreated cells | log2 fold change | -0.866 |
| CC(C)(C)c1cc(-c2ccc3cccnc3n2)nc(-c2ccc3cccnc3n2)c1.COc1ccncc1.[Cl-].[Cl-].[Ru+2].c1ccc2cc3nc4c5cccnc5c5ncccc5c4nc3cc2c1 | B16-F10 | cytotoxicity, resazurin | dark |  | EC50 | 92.8 ± 6 µM |
| COc1ccccc1-c1ccncc1C(=O)Nc1nnc(OCc2ccc(Cl)cc2)s1 | MDA-MB-436 BRCA1-mutant |  | 12 µM, mean of 3 replicates | relative to: untreated | colony survival | 44.5% |
| Cn1ncc2cc(-c3cncc(Cl)c3N3CCC4(CCNC4=O)CC3)ccc21 | LS174T | gene expression, microarray, measured: TTN mRNA | concentration not given, 4 h | relative to: untreated cells | log2 fold change | -3.92 |
| [Cl-].[Cl-].[Ru+2].c1cc(-c2ccc3cccnc3n2)nc(-c2ccc3cccnc3n2)c1.c1ccc2cc3nc4c5cccnc5c5ncccc5c4nc3cc2c1 | B16-F10 | photocytotoxicity, resazurin | visible light 400-700 nm, 20 mW, 100 J/cm2 |  | EC50 | 7.58 µM |
| CNS(=O)(=O)Nc1nccc(Cc2c(C)c3ccc(Oc4ncccc4F)cc3oc2=O)c1F | CFPAC-1 | cell viability | 7 days |  | IC50 | 0.358 µM |
| CC(C)c1ccc(N(C)c2ccc3c(c2)OCC[C@H]3CNc2cnccc2C(=O)O)cc1 | KG-1 | cell growth or viability, ATP luminescence | 7 days |  | IC50 | ≥ 10 µM |
| CC(C)(C)c1cc(-c2ccc3cc4ccccc4nc3n2)nc(-c2ccc3cc4ccccc4nc3n2)c1.[Cl-].[Cl-].[Ru+2].c1ccc2cc3nc4c5cccnc5c5ncccc5c4nc3cc2c1 | B16-F10 | resazurin | with: light 733 nm, 9 mW, 100 J/cm2 |  | EC50 | 53.4 µM |
| CCN(CC)CC(=O)Nc1cccc(-n2cc(-c3ccc4ccc(-c5cn(-c6cccc(NC(=O)CN(CC)CC)c6)nn5)cc4c3)nn2)c1 | RCC4 | PCR angiogenesis array, measured: EDN1 | 5 x IC50, 6 h, normoxia | relative to: untreated | fold regulation | -2.76 |
| Cc1ncsc1-c1ccc(C(C)NC(=O)C2CC(O)CN2C(=O)C(NC(=O)CCCCCCCCCCN2CCCC(Nc3ncc(Cl)c(Nc4ccccc4S(=O)(=O)C(C)C)n3)C2)C(C)(C)C)cc1 (centres unmarked) | 22Rv1 | RNA-seq, measured: SLITRK3 mRNA | concentration not given | relative to: DMSO | log2 fold change | -1.18 |
| CCOc1cncc(-c2ccc(NC(=O)C3(c4ccnc(NS(=O)(=O)C5CC5)n4)CCOCC3)nc2)n1 | NOMO-1 | cell proliferation, CellTiter-Glo | 72 h |  | IC50 | 0.611 µM |

A few entries again:
| SMILES | cell line | assay | setting | how to read | quantity | result |
| --- | --- | --- | --- | --- | --- | --- |
| CC(C)c1ccc(N(C)c2ccc3c(c2)OCC[C@H]3CNc2cnccc2C(=O)O)cc1 | KG-1 | cell growth or viability, ATP luminescence | 7 days |  | IC50 | ≥ 10 µM |
